Measured values gathered from unrelated publications.
Numbered parts are unrelated; each lists some results of a single study. Substitutions count along the parent as printed.

Series 1 — target: CCNF, cyclin fold, Cln2 fusion (human); method: yeast growth competition, sequencing; matrix: yeast; notes: strong parent motif; reference: not given; reading: higher = stronger binding; quantity: normalised enrichment score
Parent: WEE1 docking peptide (human); HKTFRKLRLFDTP; partner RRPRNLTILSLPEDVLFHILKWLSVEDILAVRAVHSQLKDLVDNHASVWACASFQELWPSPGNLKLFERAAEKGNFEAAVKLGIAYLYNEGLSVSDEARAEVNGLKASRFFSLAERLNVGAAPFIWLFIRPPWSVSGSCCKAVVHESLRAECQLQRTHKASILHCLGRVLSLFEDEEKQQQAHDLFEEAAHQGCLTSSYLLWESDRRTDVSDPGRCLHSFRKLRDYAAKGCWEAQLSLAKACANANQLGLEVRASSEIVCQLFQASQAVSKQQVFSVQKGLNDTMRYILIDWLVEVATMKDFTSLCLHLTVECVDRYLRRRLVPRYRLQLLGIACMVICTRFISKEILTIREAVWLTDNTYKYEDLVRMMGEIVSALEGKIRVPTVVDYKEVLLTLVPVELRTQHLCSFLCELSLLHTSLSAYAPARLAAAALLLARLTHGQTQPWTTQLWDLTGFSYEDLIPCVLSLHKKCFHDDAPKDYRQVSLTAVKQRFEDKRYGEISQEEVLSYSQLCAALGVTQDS
Variant = K2T; result = 1.93
Variant = F10W; result = 2.89
Variant = D11F; result = 2.39
Variant = P13F; result = 2.11
Variant = T12P; result = 2.28
Variant = D11W; result = 2.78

Series 2 — target: CREBRF, bZIP domain (human); method: DHFR protein complementation; matrix: yeast; reference: wild-type JUN-FOS pair; reading: higher = stronger binding; quantity: binding fitness
Notes: single substitutions, most at no-binding floor
Parent: JUN, bZIP domain (human); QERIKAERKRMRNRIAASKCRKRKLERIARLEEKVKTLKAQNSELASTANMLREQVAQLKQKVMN; partner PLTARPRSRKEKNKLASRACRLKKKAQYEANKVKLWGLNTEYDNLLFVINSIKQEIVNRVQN
Variant = A40G; result = -1.5 natural log
Variant = I28R; result = -1.37 natural log
Variant = A29V; result = -1.52 natural log
Variant = V35I; result = -0.872 natural log
Variant = M51G; result = -1.37 natural log
Variant = I28F; result = -1.4 natural log
Variant = L45R; result = -1.51 natural log

Series 3 — method: DHFR PCA, deep sequencing; matrix: yeast; added: (+)-ABA 0.39 µM; reference: wild-type fitted maximum; reading: higher = stronger binding; quantity: relative binding score
Target: ABI1, truncated, D143A, DHFR fusion (Arabidopsis thaliana)
Notes: methotrexate growth selection, single substitutions
Parent: PYL1, truncated, DHFR fusion (Arabidopsis thaliana); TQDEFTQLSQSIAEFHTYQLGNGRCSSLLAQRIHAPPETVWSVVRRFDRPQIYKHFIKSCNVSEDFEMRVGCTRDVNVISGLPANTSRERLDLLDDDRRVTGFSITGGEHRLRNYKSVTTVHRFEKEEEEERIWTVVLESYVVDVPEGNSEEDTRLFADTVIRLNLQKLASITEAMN; partner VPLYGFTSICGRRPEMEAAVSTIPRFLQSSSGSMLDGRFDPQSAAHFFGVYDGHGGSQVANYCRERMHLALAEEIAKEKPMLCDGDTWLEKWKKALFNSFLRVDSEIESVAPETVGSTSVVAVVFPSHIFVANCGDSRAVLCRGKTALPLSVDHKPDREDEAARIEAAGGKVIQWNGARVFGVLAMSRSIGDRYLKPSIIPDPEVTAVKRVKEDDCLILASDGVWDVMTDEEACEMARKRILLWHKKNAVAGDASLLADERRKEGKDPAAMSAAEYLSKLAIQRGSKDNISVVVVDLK
Variant = S11Y; result = 37.1%
Variant = L93I; result = 79.5%
Variant = D96E; result = 44.5%
Variant = F56Q; result = -8.82%
Variant = S59G; result = 9.9%

Mixed results
Molecule = PhoQ, residues 284 288 289 292 302 303 ASVMEA; target = PhoP, residues 12 14 15 18 19 LHTVM (Escherichia coli, UniProt P23836); test = Sort-seq, refers to: YFP reporter; system = E. coli; setting = PhoQ-PhoP variant library, added: 10 µM Mg2+; how to read = reference: high Mg2+ state, higher = stronger signaling; quantity = fold induction; result = 10.8

Some of these lines once more (series 3):
Variant = S59G; result = 9.9%
